Assay results collected from several papers.
A part holds a random share of what one study measured.

Series 1
Target: RNA binding protein fox-1 homolog 2, RRM domain, GST-SBP tag (RBFOX2, Homo sapiens, UniProt O43251-10, residues 100-194)
Technique: RNA Bind-n-Seq
Molecule type: RNA
Matrix: in vitro
Concentration: 365 nM
Setting: natural RNA segment, single round, ends assumed
Reference: no-protein control
Direction: higher = stronger binding
Endpoint: RBNS enrichment (R)
Shared flanks, not repeated: GGGAGUUCUACAGUCCGACGAUC … UGGAAUUCUCGGGUGCCAA
Residues (chain): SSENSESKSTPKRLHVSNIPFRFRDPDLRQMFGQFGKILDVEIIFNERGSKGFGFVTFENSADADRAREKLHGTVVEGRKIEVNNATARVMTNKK
GGUGGCUGUGAUUAAAUGUCCCAAGCAAGGAUAGGGAAGGGGAAUGGUUGAGCCUCUGGAGAUCAUUGUAACCAAUCCUGCCAGACCUGUUUGGGGCAGUGGGGAGCAAA: 2.5
GCCAUACAGCCGAGCUGGUAUUUUGACCCGCAGCAGCUCGGGCCUAAAUGGAAAUUGAAGACGUAAAGAAGAGCUUUCUUUUCCAAGAGACUCUGGUCUUGGCUAUGCUG: 0.719
AGUGCAGGGUCUGUGCACCUUCCCUGCUGGCCUGCACACAGCUGCUCAGCACCACUUUCAUUCUGGACCUGGGACCUUAGGAGCCGGGUGACAGCACUAACCAGACCUCC: 0.533
CAAAUUCAAACUAAAGGGGAAAGAUCAAACCCCUUCCCUUCCUACCUGUUUUCUGAGCUGGCUGACUUGCCAGCCACAAGCUGCUCUUGCAGAGUUCUUACCAUUCCUGU: 0.448
UUGUUGAAACAGGCCCAGAAGAACCUCAGGAGGUACCUUGGGCCCUUCCCUGCUAUCCUUUUUCUCCUUUGGAGGUGCCCAACCUCCUCCACCCCCUUCCCCUACUCUAG: 0.408
GGCUACCUGAGUACACCCCGCGCACCCUUGAGCAGGCCGGCCCUCCCCUCGUGGCAGCUGUCCUUUCCACGUGCACUGGGACCAGAAGUCAGACAAGGAAUUUAGGAAGC: 0.218
GUAUCAUAGUCAUUUAAACCUGGAUAGAUUGUAACCAUUUUCCCUUCACUCUGACACUGUCUUAUUCUGCUGCCACAAUGCAAGCAUAGUUUGUUAUUUUUGUUACUGCC: 0.548
AGUGGACCAGGAAGCGCCCCUUGCCUCUUAACGCAAACCACAGCAGCAACCUGAAGGGAUUCCUUCAGCUUACCUGGUAACCACAGCUAGUAACUAAAACACCCUUCUCU: 0.348
CCUGCCUUUUCCAGGGGUAGGUCUGUUUCUUUGCUGUUCUAUUGUCUUGAGAGCACAGACUAACACUUACCAAAUGAGGGAACUCUUGGCCCAUACUAAGGCUCUUCUGG: 1.85
CCUCUCGGGACUCCUGUUGUAGGUGGUCCCAGUCACAAGAAACCCUCUCCAGGCAAGAGGCCAUUCAGUCUGUACAUUGUCGGGACCGGAGAGGUGGGACUGCCAUCUGG: 0.288
CGUUCCCUCCCCUGGGCCUGACUGAGCCUGCUCAUUGUUUUUCCCUUUAUUACACAGGACAGCCAGGGGAGGAGGGGGGCCCAGCCCUGGGAGGCUGGUGGGAGGCAGGG: 0.674
CCAAUAACUAAUUUUAAAUACACAUUGUCCUCUCGAUUUUUGGACCAAACAGACGCUCACAGUGGAGGCUUAUCAAGGGUUGCAUUGGGGAAGAAGCCUCUCCCUCUCUG: 0.587

Series 2
Target: Sal-like protein 4, full length isoform A (SALL4, Homo sapiens, UniProt Q9UJQ4, residues 1-1053)
Sequence of UniProt Q9UJQ4 (whole entry, looked up): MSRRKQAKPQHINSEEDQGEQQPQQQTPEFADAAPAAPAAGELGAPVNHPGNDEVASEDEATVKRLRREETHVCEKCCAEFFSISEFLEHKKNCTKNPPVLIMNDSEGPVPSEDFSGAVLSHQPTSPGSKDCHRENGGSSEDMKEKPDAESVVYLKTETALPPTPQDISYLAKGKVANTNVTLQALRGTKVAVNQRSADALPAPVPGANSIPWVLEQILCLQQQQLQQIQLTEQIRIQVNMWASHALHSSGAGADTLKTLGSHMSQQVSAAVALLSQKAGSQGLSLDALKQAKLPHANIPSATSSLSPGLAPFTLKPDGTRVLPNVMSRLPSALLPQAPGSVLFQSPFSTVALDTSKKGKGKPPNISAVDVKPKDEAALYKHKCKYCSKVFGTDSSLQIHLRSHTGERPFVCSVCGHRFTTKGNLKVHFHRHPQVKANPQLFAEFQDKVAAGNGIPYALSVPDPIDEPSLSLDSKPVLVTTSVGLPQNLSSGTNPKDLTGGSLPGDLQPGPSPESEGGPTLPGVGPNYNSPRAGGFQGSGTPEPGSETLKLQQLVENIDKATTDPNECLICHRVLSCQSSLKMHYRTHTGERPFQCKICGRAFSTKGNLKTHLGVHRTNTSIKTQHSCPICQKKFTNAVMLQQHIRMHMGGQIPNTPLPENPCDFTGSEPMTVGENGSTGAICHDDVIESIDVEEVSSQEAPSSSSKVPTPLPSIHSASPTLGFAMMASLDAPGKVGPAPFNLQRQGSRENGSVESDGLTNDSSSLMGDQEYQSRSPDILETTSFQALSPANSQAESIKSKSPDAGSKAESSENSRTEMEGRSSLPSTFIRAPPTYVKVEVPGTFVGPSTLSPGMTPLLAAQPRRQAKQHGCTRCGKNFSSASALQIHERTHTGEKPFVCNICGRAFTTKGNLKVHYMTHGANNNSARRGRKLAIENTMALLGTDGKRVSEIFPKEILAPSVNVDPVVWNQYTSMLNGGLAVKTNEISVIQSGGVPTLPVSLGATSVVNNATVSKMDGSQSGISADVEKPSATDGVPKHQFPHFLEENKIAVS
Technique: universal PBM
Molecule type: double-stranded DNA, one strand shown
Matrix: in vitro
Concentration: 600 nM
Setting: 8-mer, flanks averaged, mean of replicates
Direction: higher = stronger binding
Endpoint: E-score
CGTAGAAG: 0.0162
AAACAGGA: 0.0962
AGGTATTC: 0.112
ATAGCTAA: 0.207
GGGCTCAA: -0.181
CTAGATAG: 0.027
AGCTCTTA: -0.124
ATAAGGAC: 0.0911
TAAGAACA: 0.205
CATATTCG: 0.256
ACCAAGCA: -0.141
CGAATTAC: 0.0762
CTTAGCGA: -0.0756
CCATTGCA: 0.161
AATTTGAT: 0.215
ATCGTGGA: 0.0328
ATGCCATG: 0.0831
AGGTGGAG: -0.116
CTCAACCC: -0.246
CCTCAGTA: -0.0394
AGGGTTTG: -0.0612
GACGGGGC: -0.308
GACTGCCC: -0.252
ACCTCCGC: -0.293
CGATTACA: 0.0537

Series 3
Target: Fragile X messenger ribonucleoprotein 1, C-terminal low-complexity region (Fmr1, Mus musculus, UniProt P35922)
Technique: RNA Bind-n-Seq
Molecule type: RNA
Matrix: in vitro
Concentration: 200 nM
Setting: whole 134-nt RNA, ends assumed
With: 150 mM KCl
Reference: input library
Direction: higher = stronger binding
Endpoint: log2 enrichment
Shared flanks, not repeated: GGGAGUUCUACAGUCCGACGAUC … UGGAAUUCUCGGGUGUCAAGG
AAGUCCUGUGCUACACAUCGUAUGUACCGAAUCGGUUUUGGGGUUUUGGGUUUUGGGAAAGUAUUAUGUUACGCCGUUCGGAUCUGCACU: 0.0631
GUCCUGUGCUACACAUCGUAUGUACCGAAUCGGGGAAAAAGGGAAAAAGGGAAAAAGGGAAAGUAUUAUGUUACGCCGUUCGGAUCUGCA: -0.178
GUCCUGUGCUACACAUCGUAUGUACCGAAUCGGCCCCCCGGGGCCCCCCGGCCCCCCGGAAAGUAUUAUGUUACGCCGUUCGGAUCUGCA: -0.407
UGCAGUGAUGGUCAUUGUCCUCCAGAGCAGUGAUGGAGGAAAUACCAGCCCAGGAAGCAGCAGGGUCACCAAGGGUCCAGUUUCAGUCUU: -0.481
CCUCAAGUCCUGUGCUACACAUCGUAUGUACCGAAUCGGGGCGGGCGGGGCGGAAAGUAUUAUGUUACGCCGUUCGGAUCUGCACUUCCA: 0.997
CCUCAAGUCCUGUGCUACACAUCGUAUGUACCGAAUCGGGGAGGAGGGGAGGGAAAGUAUUAUGUUACGCCGUUCGGAUCUGCACUUCCA: 1.27
CUCAAGUCCUGUGCUACACAUCGUAUGUACCGAAUCGGAAAAAGGAAAGGAGGAAAGUAUUAUGUUACGCCGUUCGGAUCUGCACUUCCA: -0.471
AAGUCCUGUGCUACACAUCGUAUGUACCGAAUCGGAAAAAGGUUUUUGGAAAAAGGAAAGUAUUAUGUUACGCCGUUCGGAUCUGCACUU: -1.36
CCUGUGCUACACAUCGUAUGUACCGAAUCGGGGAAAAAGGGGUUUUUGGGGUUUUUGGGGAAAGUAUUAUGUUACGCCGUUCGGAUCUGC: 0.522
UCCUGUGCUACACAUCGUAUGUACCGAAUCGGGGUUUGGGGAAAAAAAGGGGAAAGGGGAAAGUAUUAUGUUACGCCGUUCGGAUCUGCA: 0.654
ACCAUGCAGUUGGGCAUCUUUGGGAAGUGGGGCAAGGGGGGGAUAGGGAGGGGGGUAACACUUUGGGAACAGGUGGUCCCAGGUCGUUUC: 0.893
GCAGGAAGUAAAAACAAAUGGAAAUGCUUCGGAUAGUGGAAAGGGUGGGGGUUGCUAAGGAAAGGGUGGGAUGGGAGUGGGUAAAGAGUU: 0.203
AGUCCUGUGCUACACAUCGUAUGUACCGAAUCGGGUUUUUGGGUUUUUGGGUUUGGGAAAGUAUUAUGUUACGCCGUUCGGAUCUGCACU: 0.484
UCCUCAAGUCCUGUGCUACACAUCGUAUGUACCGAAUCGGGUGGUGGUGGGGAAAGUAUUAUGUUACGCCGUUCGGAUCUGCACUUCCAG: 0.618

Series 4
Target: RING finger protein unkempt homolog, zinc fingers 1-6, GST-SBP tag (UNK, Homo sapiens, UniProt Q9C0B0, residues 30-357)
Technique: RNA Bind-n-Seq
Molecule type: RNA
Matrix: in vitro
Concentration: not given
Setting: RNA with constant flanks, ends assumed
Reference: input RNA pool
Direction: higher = stronger binding
Endpoint: bound/input enrichment
Shared flanks, not repeated: GGGAGUUCUACAGUCCGACGAUC … CAACAGAGGAUUGAGCAUCA
Target sequence (chain): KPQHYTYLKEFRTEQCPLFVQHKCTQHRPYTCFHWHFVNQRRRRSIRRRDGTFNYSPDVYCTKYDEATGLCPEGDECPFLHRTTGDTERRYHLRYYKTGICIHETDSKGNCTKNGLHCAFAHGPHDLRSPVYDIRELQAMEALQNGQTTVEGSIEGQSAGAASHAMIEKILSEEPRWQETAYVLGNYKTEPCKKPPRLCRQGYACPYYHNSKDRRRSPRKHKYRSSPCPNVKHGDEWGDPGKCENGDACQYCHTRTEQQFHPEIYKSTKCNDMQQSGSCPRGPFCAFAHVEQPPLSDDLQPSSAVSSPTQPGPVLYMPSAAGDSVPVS
AAAUAUGUUGUACAUUUGAUUAAAAUUAUUUAGAUAAAUAUUACUAUGUUGACUUUUAAACCGCUUUAUCCUAUUUUUCAUUCAUUUUGCAAAUAUUUGUUGUGUGUAGUUUCUUAACGU: 13.6 ratio
AUUUUUCAGAGAAGUAUAGAUACUGUCUCCACUCCCUAAUAAUUUCUCUCCCUAACAUUUCCGCAAUUUUUACCUUGUUUGGGGGUUCAUUUUGUUUCUUCAGAUUUGAUUUAGACUCUG: 0.838 ratio
UUCUUCAAACCUGGUAGUCAGUUUUUGUAUUCAACUUUUGGCUAUACCCUACUGGCAGCCACCGCCGAGAGAGCUUCAGGAUGUAAAUAUUUGGACUAUAUGCAGAAAAUAUUCCAUGAC: 0.119 ratio
AAAACUAUUCUACAGUGCAAAAAAUACCAGCGAACUCCUGUUUAAGAAAAAUAUCCUUGAUUCCGUAAAUGAAUUUCCUGAGAAGAUUGCAUGCAGUUUGCAUGUUACAAAACAGACUAC: 0.414 ratio
ACAAAUUCUAAGUCUGAUGAAGACAGGCAGCUAGCUAACUCAUUAGAGAGUGUAGGGCCAACCGAUUACGUUCUUCCUAGUUGUGGUAUUAUUGCCUCAGCGCCUCGAUUGGGCAGUCGG: 0.326 ratio
GGCAUGAAGGACGAUCGUCGUGACAGAUACUCUGCAGGCAAAAGGGGUGGAUUUAAUACCUUCCGAGACAGGGAAAACUAUGACAGAGGCUACUCUAAUCUGCUUAAGAGAGAUUUUGGG: 0.367 ratio
UUAGCUGAGGACAAGCCUGGUCCAGGUCCAUUUUCUGAUCAGUCUGAACCUGCAAUAACUACCCGCCGUCCUGUGGCUUUUAACCCAUUUCUCAUCCCAGGAGUAUCUCCUGGACUCAUU: 0.251 ratio
ACUGUGCUUCAAGCGGUGUCUGCUUUUGGGGCAGAGUUUUCAUCGGAGGCAUGCAGAGAGUCCGGCUUUUCUAGCAACUUGCUUUGCAGCUCUUGUGAUCUUCUCGGACAGUUCAACCUG: 0.0715 ratio
AAUAGAGAUUUGUCCACACCUGGCCUGGAGAAGGACAGUGGAGGGAAGACACCUGGUGACUUCCGCUAUGCCUAUCAAAAGCCUGAGGAAACAACCAGGUCCCCAGAUGAAGAAGAUUAU: 0.235 ratio
UCAUUGACCACCAUGAUAAUACCUACACAGUCAAGUACAUUCCUGUGCAGCAGGGCCCAGCCGGUGUCAAUGUCACUUAUGGAGGAGAUCACAUCCCCAAGAGUCCAUUUUCAGUGGGAG: 0.129 ratio
AACAAAGAUUAUCACCAGGAUGUGCGUAAUAACUUUUUGCCACCAAUUAUUGCACGUUUUAUCCGAGUGAAUCCUACCCAAUGGCAGCAGAAAAUUGCCAUGAAAAUGGAGCUGCUCGGA: 0.115 ratio

Excerpt of the above (series 3):
AAGUCCUGUGCUACACAUCGUAUGUACCGAAUCGGAAAAAGGUUUUUGGAAAAAGGAAAGUAUUAUGUUACGCCGUUCGGAUCUGCACUU: -1.36
UGCAGUGAUGGUCAUUGUCCUCCAGAGCAGUGAUGGAGGAAAUACCAGCCCAGGAAGCAGCAGGGUCACCAAGGGUCCAGUUUCAGUCUU: -0.481
CCUGUGCUACACAUCGUAUGUACCGAAUCGGGGAAAAAGGGGUUUUUGGGGUUUUUGGGGAAAGUAUUAUGUUACGCCGUUCGGAUCUGC: 0.522
CCUCAAGUCCUGUGCUACACAUCGUAUGUACCGAAUCGGGGAGGAGGGGAGGGAAAGUAUUAUGUUACGCCGUUCGGAUCUGCACUUCCA: 1.27
AAGUCCUGUGCUACACAUCGUAUGUACCGAAUCGGUUUUGGGGUUUUGGGUUUUGGGAAAGUAUUAUGUUACGCCGUUCGGAUCUGCACU: 0.0631
CCUCAAGUCCUGUGCUACACAUCGUAUGUACCGAAUCGGGGCGGGCGGGGCGGAAAGUAUUAUGUUACGCCGUUCGGAUCUGCACUUCCA: 0.997
ACCAUGCAGUUGGGCAUCUUUGGGAAGUGGGGCAAGGGGGGGAUAGGGAGGGGGGUAACACUUUGGGAACAGGUGGUCCCAGGUCGUUUC: 0.893
